Measured values of several laboratories.
Lines come from different studies, so protocols differ. Several values in a cell are separate wells, animals, samples, runs or records. ± gives the spread as reported.

| Compound | target or system | test | test system | conditions | quantity | value |
| --- | --- | --- | --- | --- | --- | --- |
| Cc1ccc(N(C)C2(C)CN(C)C2)cc1C(=O)N[C@H](C)c1cc(-c2cnn(C)c2)nc2ccccc12 | Vero E6 |  |  | 15.62 µM | viability | 101% and 99.8% and 97.8% |
| O=C1NC2(CC2)COc2ncc(F)cc2[C@H]2COCCN2c2ccn3ncc1c3n2 |  |  | Sprague-Dawley rat, female, blood | oral, 10 mg/kg/day, 4 weeks, end of recovery, subacute toxicity | monocyte percentage | 1.9 ± 0.7% |
| Cc1cc(-c2ccc3ccccc3c2)nnc1NCCN1CCN(C)CC1 |  | metabolic stability | rat, liver microsomes | 10 min | compound remaining | 92.7% |
| Cc1ccc(OCCN(C)C)cc1C(=O)N[C@H](C)c1cc(-c2scnc2C)nc2ccccc12 | Vero E6 |  |  | 31.25 µM | viability | 65.2% and 74.4% |
| COc1cccc2c1C(=O)c1c(O)c3c(c(O)c1C2=O)CC(O)(C(=O)CO)CC3OC1CC(NC(=O)OC2C=CCCC(C)(C(=O)NCC(=O)O)CC2)C(O)C(C)O1 (stereo not drawn) |  |  | Sprague Dawley rats male, plasma | intravenous, 21.5 mg/kg/day doxorubicin equivalent, day 5 | Cmax | 2.52 ± 0.548 µg/mL |
| CC[C@H](C)[C@H](NC(=O)[C@H](CCCCN)NC(=O)CNC(=O)[C@H](CC(C)C)NC(=O)[C@H](Cc1ccccc1)NC(=O)[C@H](CCCCN)NC(=O)[C@H](CO)NC(=O)[C@H](Cc1ccccc1)NC(=O)[C@H](Cc1c[nH]c2ccccc12)NC(=O)[C@H](CCC(N)=O)NC(=O)[C@@H](NC(=O)[C@H](Cc1ccccc1)NC(=O)CCCCCNC(=O)CN1CCN(CC(=O)O)CCN(CC(=O)O)CCN(CC(=O)O)CC1)C(C)C)C(=O)N[C@@H](CCC(=O)O)C(=O)N1CCC[C@H]1C(=O)N[C@@H](CC(=O)O)C(=O)N[C@H](C(=O)N[C@@H](CO)C(=O)N[C@@H](CCC(N)=O)C(=O)N[C@H](C(=O)N[C@@H](CCC(N)=O)C(=O)N[C@@H](CC(=O)O)C(=O)N1CCC[C@H]1C(=O)N[C@@H](CC(N)=O)C(=O)N[C@@H](CC(=O)O)C(=O)N[C@@H](CCC(N)=O)C(=O)N[C@@H](Cc1ccc(O)cc1)C(=O)N[C@@H](CCC(=O)O)C(=O)N1CCC[C@H]1C(=O)N[C@@H](Cc1ccccc1)C(=O)O)C(C)C)C(C)C [copper-64 labelled] |  | dynamic PET | mouse both sexes, CT26 tumour, checkpoint inhibitor-treated, tumour | intravenous, 100 µCi/mouse, 990 s | SUVmean | 4.01 SUV |
| CC(C)=CCC/C(C)=C/CCn1cc(CC(C)(P(=O)(O)O)P(=O)(O)O)nn1 |  |  | mouse CD-1, bile | intravenous, 0.3 mg/kg, 2 h | concentration | 3.83 ± 1.23 µg/mL |
| CC[C@H](C)[C@H](NC(=O)[C@H](C)NC(=O)[C@H](CCCCN)NC(=O)[C@H](CCCCN)NC(=O)[C@@H](N)CCCNC(=N)N)C(=O)N[C@@H](CCCCN)C(=O)N[C@@H](CC(C)C)C(=O)N[C@H](C(=O)N[C@@H](CCCCN)C(=O)N[C@@H](CCCCN)C(=O)N[C@@H](CC(C)C)C(=O)N[C@H](C(=O)N[C@@H](CCCCN)C(=O)N[C@@H](CCCCN)C(=O)N[C@@H](CC(C)C)C(=O)N[C@@H](CCCCN)C(=O)N[C@@H](CCCCN)C(=O)N[C@@H](C)C(=O)N[C@@H](CC(C)C)C(=O)N[C@@H](CCCCN)C(=O)O)C(C)C)C(C)C |  |  | human red blood cells | 0.5 mg/L, 1 h | hemolysis | 1.13% and 0.442% and 0.23% |
| CCCCCCCCCCCCCCCC(=O)N[C@@H](CCC(=O)NCCOCCOCCC(=O)NCCOCCOCCC(=O)NCCCC[C@H](NC(=O)[C@H](CC(=O)O)NC(=O)[C@H](CC(C)C)NC(=O)[C@H](Cc1ccc(O)cc1)NC(=O)[C@H](CCCCN)NC(=O)[C@H](CO)NC(=O)[C@H](Cc1ccc(O)cc1)NC(=O)[C@H](CC(=O)O)NC(=O)[C@H](CO)NC(=O)[C@@H](NC(=O)[C@H](Cc1ccccc1)NC(=O)[C@@H](NC(=O)CNC(=O)[C@H](CCC(N)=O)NC(=O)[C@@H](CO)NC(=O)[C@@H](N)Cc1c[nH]cn1)[C@@H](C)O)[C@@H](C)O)C(=O)N[C@@H](CCCNC(=N)N)C(=O)N[C@@H](CCCNC(=N)N)C(=O)N[C@@H](C)C(=O)N[C@@H](CCC(N)=O)C(=O)N[C@@H](CC(=O)O)C(=O)N[C@@H](Cc1ccccc1)C(=O)N[C@H](C(=O)N[C@@H](CCC(N)=O)C(=O)N[C@@H](Cc1c[nH]c2ccccc12)C(=O)N[C@@H](CC(C)C)C(=O)N[C@@H](CC(C)C)C(=O)N[C@@H](CC(N)=O)C(=O)N[C@H](C(=O)NCC(=O)NCC(=O)N1CCC[C@H]1C(=O)N[C@@H](CO)C(=O)N[C@@H](CO)C(=O)NCC(=O)N[C@@H](C)C(=O)N1CCC[C@H]1C(=O)N1CCC[C@H]1C(=O)N1CCC[C@H]1C(=O)N[C@@H](CO)C(N)=O)[C@@H](C)O)C(C)C)C(=O)O |  | refers to: ALP | Sprague-Dawley rat, male | subcutaneous, 20 µg/kg once daily, 14 days | serum enzyme activity | 150 ± 30.7 U/L |
| CSCC[C@H](NC(=O)CNC(=O)[C@H](CCCCN)NC(=O)[C@H](CC(C)C)NC(=O)[C@@H]1CCCN1C(=O)[C@H](CO)NC(=O)[C@H](Cc1c[nH]cn1)NC(=O)[C@H](Cc1c[nH]c2ccccc12)NC(=O)[C@H](CCCNC(=N)N)NC(=O)[C@H](CC(C)C)NC(=O)[C@H](CCCNC(=N)N)NC(=O)[C@H](Cc1c[nH]c2ccccc12)NC(=O)[C@H](CS)NC(=O)CCCCCNC(=O)CN1CCN(CC(=O)O)CCN(CC(=O)O)CCN(CC(=O)O)CC1)C(=O)O [copper-64 labelled] |  | PET | C57BL/6J mice, B16-F10 tumour, kidney | intravenous, 3.5 h | tissue uptake | 12.1 ± 0.97 %ID/g |
| CN1Cc2cc(Cl)ccc2-n2c(nnc2C2CCN(c3cccc([18F])n3)CC2)C1 |  |  | C57BL/6 mouse male, liver | intravenous, dose not given, 30 min, together with: blocking agent 10 mg/kg | tissue uptake | 12 ± 2.96 %ID/g |
| CC(=O)NCCCC[C@@H]1NC(=O)[C@H](Cc2c[nH]c3c(C)cccc23)NC(=O)[C@H]([C@@H](C)O)NC(=O)[C@H](CC(N)=O)NC(=O)[C@@H](NC(C)=O)C(C)(C)SSC(C)(C)[C@@H](C(=O)N[C@@H](Cc2ccc(OCCN)cc2)C(=O)N[C@@H](Cc2ccc3ccccc3c2)C(=O)NC2(C(=O)N[C@@H](CCC(=O)O)C(=O)N[C@@H](CC(N)=O)C(=O)N[C@@H](Cc3cccnc3)C(=O)N(C)CC(N)=O)CCOCC2)NC1=O |  |  | human | oral, 10 mg multiple doses, day 10 | apparent clearance CL/F | 5380 ± 1450 L/h |
| CC(C)[C@@H]1NC(=O)CNC(=O)[C@H](CC(N)=O)NC(=O)[C@H](CCCNC(=N)N)NC(=O)[C@H](Cc2ccc(O)cc2)NC(=O)[C@H](C(C)C)NC(=O)[C@@H](NC(=O)[C@@H](NC(=O)[C@H](CC(N)=O)NC(=O)[C@H](Cc2c[nH]c3ccccc23)NC(=O)[C@H](C)NC(=O)[C@H](Cc2ccccc2)NC(=O)CNC(=O)[C@H](CCCCN)NC(=O)[C@H](Cc2ccccc2)NC(=O)[C@H](Cc2ccccc2)NC(=O)[C@H](CCCCN)NC(=O)OCC2c3ccccc3-c3ccccc32)C(C)C)CSSC[C@@H](C(=O)N[C@@H](Cc2c[nH]cn2)C(=O)N[C@@H](CCCNC(=N)N)C(=O)N[C@@H](CCCNC(=N)N)C(=O)N[C@@H](C)C(=O)N[C@@H](CC(N)=O)C(N)=O)NC(=O)[C@H](C(C)C)NC(=O)[C@H](CCCNC(=N)N)NC1=O |  |  | ICR mice, blood | intraperitoneal, 5 mg/kg, day 5 | lymphocytes | 74.5 ± 1.36% |
| CC(C)C[C@H](NC(=O)[C@H](Cc1ccc(O)cc1)NC(=O)[C@H](C)NC(=O)[C@H](CC(N)=O)NC(=O)[C@H](CC(C)C)NC(=O)[C@H](C)NC(=O)[C@@H](NC(=O)[C@H](CCCCN)NC(=O)CNC(=O)[C@@H](NC(=O)[C@H](CCCCN)NC(=O)[C@H](CCCCN)NC(=O)CNC(=O)[C@@H](NC(=O)[C@H](Cc1c[nH]cn1)NC(=O)[C@@H](NC(=O)[C@H](C)NC(=O)[C@H](CCCCN)NC(=O)[C@H](CCCCN)NC(=O)[C@H](Cc1ccccc1)NC(=O)[C@H](Cc1c[nH]c2ccccc12)NC(=O)[C@H](CCCCN)NC(=O)[C@H](CCCCN)NC(=O)[C@H](CC(C)C)NC(=O)CN)C(C)C)C(C)C)C(C)C)C(C)C)C(N)=O |  |  | zebrafish embryos 4 hpf, E3 medium | 1 h | acute toxic concentration | 5 µM |
| CC(C)[C@H](NC(=O)[C@@H](NC(=O)[C@H](CCCNC(=N)N)NC(=O)[C@H](CCCNC(=N)N)NC(=O)[C@H](CCCNC(=N)N)NC(=O)[C@H](CCC(N)=O)NC(=O)[C@H](CCCNC(=N)N)NC(=O)[C@H](CCCNC(=N)N)NC(=O)[C@H](CCCCN)NC(=O)[C@H](CCCCN)NC(=O)[C@H](CCCNC(=N)N)NC(=O)CN)[C@@H](C)O)C(=O)N[C@H](C(=O)N[C@@H](CO)C(=O)N1CCC[C@H]1C(=O)O)[C@@H](C)O |  |  | ICR mice, female, stomach | intranasal, 20 mg/kg daily, 4 weeks | organ weight | 0.342 ± 0.03 g |

Some of these lines once more:
| Compound | target or system | test | test system | conditions | quantity | value |
| --- | --- | --- | --- | --- | --- | --- |
| CC(C)C[C@H](NC(=O)[C@H](Cc1ccc(O)cc1)NC(=O)[C@H](C)NC(=O)[C@H](CC(N)=O)NC(=O)[C@H](CC(C)C)NC(=O)[C@H](C)NC(=O)[C@@H](NC(=O)[C@H](CCCCN)NC(=O)CNC(=O)[C@@H](NC(=O)[C@H](CCCCN)NC(=O)[C@H](CCCCN)NC(=O)CNC(=O)[C@@H](NC(=O)[C@H](Cc1c[nH]cn1)NC(=O)[C@@H](NC(=O)[C@H](C)NC(=O)[C@H](CCCCN)NC(=O)[C@H](CCCCN)NC(=O)[C@H](Cc1ccccc1)NC(=O)[C@H](Cc1c[nH]c2ccccc12)NC(=O)[C@H](CCCCN)NC(=O)[C@H](CCCCN)NC(=O)[C@H](CC(C)C)NC(=O)CN)C(C)C)C(C)C)C(C)C)C(C)C)C(N)=O |  |  | zebrafish embryos 4 hpf, E3 medium | 1 h | acute toxic concentration | 5 µM |
